Assay results gathered from unrelated publications.
A part holds a random share of what one study measured.

Set 1
Target: Hepatocyte nuclear factor 3-beta, forkhead domain (FOXA2, Homo sapiens, UniProt Q9Y261, residues 142-269)
Method: protein-binding microarray
Molecule type: double-stranded DNA, one strand shown
Matrix: in vitro
Concentration: not given
Notes: k-mer, scored over probes, only values ≥0.25
Reading: higher = stronger binding
Construct (chain): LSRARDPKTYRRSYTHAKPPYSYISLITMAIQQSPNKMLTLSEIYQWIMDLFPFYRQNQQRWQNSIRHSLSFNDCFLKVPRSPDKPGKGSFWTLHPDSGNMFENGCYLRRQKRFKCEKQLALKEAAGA
Strand	E-score
ATAAAAAC	0.254
CCCAAACA	0.299
ATCCATAA	0.283
ACTAGCCT	0.255
AGTCATGA	0.271
CATGGTAA	0.255
ATATTCCG	0.253
CACATTAC	0.316
TATAGACA	0.355
ATATCAAC	0.296
AATAGTAT	0.289
ATATAAAC	0.378
ACTACATA	0.317
TGTCAACA	0.4
AATCATAT	0.325
ATAAGAAA	0.265
ATGCATTA	0.283
TTGATAAA	0.263
ATAACTTA	0.272
ACCTTGTA	0.291
ATTACCAC	0.268

Set 2
Target: RNA binding protein fox-1 homolog 2, RRM domain, GST-SBP tag (RBFOX2, Homo sapiens, UniProt O43251-10, residues 100-194)
Method: RNA Bind-n-Seq
Molecule type: RNA
Matrix: in vitro
Concentration: 365 nM
Notes: natural RNA segment, single round, ends assumed
Relative to: no-protein control
Reading: higher = stronger binding
All sequences stand within: GGGAGUUCUACAGUCCGACGAUC … UGGAAUUCUCGGGUGCCAA
Residues (chain): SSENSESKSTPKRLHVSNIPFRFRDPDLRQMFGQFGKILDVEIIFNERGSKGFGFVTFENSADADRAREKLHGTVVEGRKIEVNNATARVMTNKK
Strand	RBNS enrichment (R)
GGAACUGGGCUGGCGCUUGGAUCUGGGGUGGGAGUAACAGGGCAGAAAUGAUUAAAAUGUUUGAGCAAACUUGCCGUGCAUGUGUGAAGUGAAAUGAAGAACAUCCGCUC	24.5
UUGGUUCAGAAACAAGUUGUAUAUUUUUCACCCCUGAUUAUGGGAAAAAAAUCAGUUCUGUCUUUGUGGGUUGCUCUACUAUGGAGAUCAACAGUUACUGUGACUGAGUC	0.315
GAUGUGAUUCCCAACACAGAAUUUUCAUGACCCUUUUAUUGUAUACAAAUAAAUACCAUAACAGUUACUUGGUUAGACAUCAAAUCUGUGUGCAUGACUAUGUGCUUAUC	14.4
CUCCAUUGGCUAAGAUAGAACACUUAAAAACACUUUUCUCCCCCUUGUUGGGAGUGCUUUAUUUUUUAAAAGCAAACCUAAAUGAAACUAUUUUUCCCCUUAAAAUAGGA	0.825
CCUCAAAAACAAAACAAAAAAAAUGUUUUUACGCAUUUUAUCAAAAUUAGCACAUCUGUGGCUGAGGAGAAAUCCACCUGAAAAUGUGGGAGACCUUGACAGAGUGGUCA	0.703
GCUUUGUGCUUGGCAUGUCGUUAUUUUCCAUUUGACAUUAGGGCCUUUCCAAAUGAAUGUGAGGAGUUGCUUUCACUUCAAGACUGUCCUUCUUUUCAGUAAAACUUUAG	1.15
UUCACCUAGGCUUUCACAGCAAAAGUUGGGUGGAAAGAGAAAUUUUUAUUUGUGAUGACACAAUAGAGCCAGAAUAUUAGCUAACAACGUUGAAGGAGGUGUUGGGUGUU	0.575
ACCAAGACUUUAUAGCAGAUGGACCCAGAAAGAAUUUUCUGCUAUUGUGUUCACUACAACAGGAUAGGGACAUCAGACAGCCCCAGAAACCCCUUCCAGAUCUGAUAUGG	0.335
UUGUCUGUGGUGACCUGGGCAUGGGUGACAGGGCUCUCAUUUGCCCCUUGGUCUCUUUAUGCUGCUGAGUCCCCCUUUCCUGCCCUCCCUGGCUACUGGGUCAAUAAUCU	0.462
UAACAUCAGCCUUCCUCGCCCAUCUCUUUCCAUCUGUCUCUUCUUCAUUAAACACUUACUGAGUAUGAUUUCUGUGUCAGGCAGUGGUUUUCAUUUGUGGGGACGUGUCG	0.487
AGCCUUGUCUUCUUAGCUGUCACCUGCCGAGGCUUCUGGGCCACUCAGGCCAGUGCACCCCUGGGCAGAGCCCCUUAAAGCUGCUGUCACUAGAUGCCCAUGGUCCAGGG	0.271
GGAAAUAUUCUCUAUGGUAAUCCUUGCCAGAGGGUCUCCAAAGGAAGCUAACCGCUGGCCCCGAAUCACGCAGCCCGUCCUUAAACGGCCUCGCCAUGUGCAUUGCCACC	0.185

Set 3
Target: RING finger protein unkempt homolog, zinc fingers 1-6, GST-SBP tag (UNK, Homo sapiens, UniProt Q9C0B0, residues 30-357)
Method: RNA Bind-n-Seq
Molecule type: RNA
Matrix: in vitro
Concentration: not given
Notes: RNA with constant flanks, human-mouse chimeric sites, ends assumed
Relative to: input RNA pool
Reading: higher = stronger binding
All sequences stand within: GGGAGUUCUACAGUCCGACGAUC … CAACAGAGGAUUGAGCAUCA
Construct (chain): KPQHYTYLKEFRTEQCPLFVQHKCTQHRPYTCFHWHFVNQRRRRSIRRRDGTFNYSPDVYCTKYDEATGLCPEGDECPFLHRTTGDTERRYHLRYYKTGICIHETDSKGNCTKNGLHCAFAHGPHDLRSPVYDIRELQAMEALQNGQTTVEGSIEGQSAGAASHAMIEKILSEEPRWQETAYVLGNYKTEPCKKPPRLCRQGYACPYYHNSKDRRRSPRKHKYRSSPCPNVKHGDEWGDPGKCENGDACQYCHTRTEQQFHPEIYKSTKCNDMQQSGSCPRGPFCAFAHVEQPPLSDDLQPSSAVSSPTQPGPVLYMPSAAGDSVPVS
Strand	bound/input enrichment [ratio]
GAUCAUGAACCACCAUCAGAAAUGAAGAUGAGAUUACCCAGACGAGCCAAAACAGCUGCGCUACAGAAAAAGUAAACUUAACCUUGCGAGUUCCUUAAUGAAGAUACAAGUUAAGAGAGC	0.166
GCAGGAUCUUCUAAGUACCAGUGGGGCAUUAUGAAAUCCCUUGGGCUCUCUGAUGACGAGAUAGUAAAGUUUUCUGAAGCAGAGCACUGGCUUGAUUAUUUCCCACCACUGGCCGUUCAG	0.16
ACUCAGAGAUCCACCUCCCAAAGUGCUGGGAGUAAAGGUGUGGCCACCACACCUAACUUGAUGGAUAUAUAUUUUUUUUAAUAUGAAUGAACUCUUGCGUCCAGGGAGCAAGAACGGGUU	0.872
UCUGGUCACACUCGUGUGUAUGGUGUUUGCUUUGUGGAUACUUCACUGGGCAAGUUUUUCAUCGGCCAGUUUUCGGAUGAUCGCCAUUGUUCCAGAUUUAGGACGCUAGUGGCUCACUAU	0.384
GCAUAUGGUUAUCGAGGAAAGGACUGUAGAGCGAAUGUAUACCUGCUUCCCACAGGGAAAAUAGUUUAUUUUAUCGCCUCAGUGGUAGUCCUGUUUAAUUAUGAGGAGAGGACUCAGCGA	20.8
GCUGAAAAUGAAGAAGAGGCAGCUGAUGUCUGGUACAACCUGGGGCACAUAGCUGUGGGAAUCGGAGAUACAAAUUUGGCCCACCAAUGCUUCAGGCUGGCUCUGGUCCACAACAACCAC	0.153
GGGGAGAAACCUUACGAAUGCGUUCAGUGUGGGAAAUCCUACAGUCAGAGCUCAAACCUCUUCAGACAUCAGAGACGACACAAUGCAGAAAAACUUCUGAAUGUUGUGAAGGUUUAAGAA	0.0875
AAUUUCCUGUCAUACUUUUUAGACAUUGCCAUAGGUAUUACAGAGCACCUGGCCACAUUCUAGGUUUGUGUUAUUUCUCAGCUAUGGAUAUGAUCAAAUGAGAACACUGGCAGCCAGAUG	2.33
CAGUCCCCGUGUCCCAGUGCAGGACGAUGUGAACAAAUCGAAGACAUGGACCCUCUAUUGUAGUUCUUGAUUCUCGAAAUGUGCUAUUAUUGUUUGUAAAAAAGGAAUUUUUUUUAAAGA	0.337
GCGGCAGAAUCAUGGAGGACAUAAUGCACUUGCCCAGAGCGCGCGUCAACGCCAGCAUGUUACCACAGUAUAUCGACCGGCCCGUGUGCUUCGUAGGGAAGCUGGAAAAGAUUCAUCCCA	0.152
AAUUUCCUGUCAUACUUUGUAGCAAGACACAUCAGACUUACAGAGCACCUGGCCACAUUCUAGGUUUGUGUUAUUUCUCAGCUAUGGAUAUGAUCAAAUGAGAACACUGGCAGCCAGAUG	0.293

Set 4
Target: Sal-like protein 4, full length isoform B (SALL4, Homo sapiens, UniProt Q9UJQ4-2, residues 1-616)
Method: universal PBM
Molecule type: double-stranded DNA, one strand shown
Matrix: in vitro
Concentration: not given
Notes: 8-mer, flanks averaged, mean of replicates
Reading: higher = stronger binding
Target sequence (chain): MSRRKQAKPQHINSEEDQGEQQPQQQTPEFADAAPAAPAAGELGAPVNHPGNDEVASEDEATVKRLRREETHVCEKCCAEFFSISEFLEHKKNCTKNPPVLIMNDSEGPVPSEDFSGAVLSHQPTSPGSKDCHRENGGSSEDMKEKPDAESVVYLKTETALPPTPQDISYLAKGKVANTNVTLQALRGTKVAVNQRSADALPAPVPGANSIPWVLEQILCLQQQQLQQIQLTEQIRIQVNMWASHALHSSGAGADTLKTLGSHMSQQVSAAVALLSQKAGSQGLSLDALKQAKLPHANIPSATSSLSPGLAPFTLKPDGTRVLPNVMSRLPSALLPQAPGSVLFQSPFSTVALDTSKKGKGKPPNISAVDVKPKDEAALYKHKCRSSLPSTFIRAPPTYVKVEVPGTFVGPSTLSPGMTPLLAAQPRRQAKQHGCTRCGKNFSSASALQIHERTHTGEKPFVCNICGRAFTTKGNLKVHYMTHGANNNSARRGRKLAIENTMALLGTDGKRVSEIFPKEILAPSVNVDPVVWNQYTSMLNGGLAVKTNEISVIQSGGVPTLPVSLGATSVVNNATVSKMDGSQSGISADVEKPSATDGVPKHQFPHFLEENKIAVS
Strand	E-score
ATCCATCC	0.0986
AGATAGGA	0.0135
AGCGTCCC	-0.202
ATCATCTG	0.0403
CTCCATAC	-0.0517
AGCTGAAT	-0.0303
GCATGGGC	-0.212
ACGACGTA	0.123
CTACGTAC	0.127
ACGATTAC	0.139
GACCACCA	-0.21
CAGCGACC	-0.32
AATGAAGG	0.0911
AACGAGCT	-0.169
AAGCACTT	0.0366
CTTCTACA	0.153
CCTGCTAG	-0.214
ACATCAAT	0.269

Set 5
Target: Interferon regulatory factor 7, full length, phosphomimetic (IRF7, Homo sapiens, UniProt Q92985, residues 1-503, S471D/S472D/S475D/S476D/S477D/S483D/S484D/S487D)
Chain of UniProt Q92985 (whole entry, unmodified, looked up): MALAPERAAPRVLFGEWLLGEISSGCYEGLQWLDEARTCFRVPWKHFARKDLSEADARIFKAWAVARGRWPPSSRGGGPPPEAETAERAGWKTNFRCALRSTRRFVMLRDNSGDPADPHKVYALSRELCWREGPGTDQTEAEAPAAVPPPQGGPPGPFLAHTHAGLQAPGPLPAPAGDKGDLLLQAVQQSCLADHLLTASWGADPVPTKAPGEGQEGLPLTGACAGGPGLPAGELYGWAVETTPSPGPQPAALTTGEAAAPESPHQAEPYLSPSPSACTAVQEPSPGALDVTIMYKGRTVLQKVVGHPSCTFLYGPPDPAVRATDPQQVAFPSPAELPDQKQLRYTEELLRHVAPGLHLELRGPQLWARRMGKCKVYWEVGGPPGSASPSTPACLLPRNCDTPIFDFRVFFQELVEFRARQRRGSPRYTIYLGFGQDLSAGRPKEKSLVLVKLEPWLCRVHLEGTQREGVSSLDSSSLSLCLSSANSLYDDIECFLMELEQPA
Method: protein-binding microarray
Molecule type: double-stranded DNA, one strand shown
Matrix: in vitro
Concentration: 2200 nM top
Notes: 60-bp whole probe
With: salmon DNA 0.4 mg/ml
Relative to: random background probes
Reading: higher = stronger binding
All sequences stand within: GCCTAGCAC … GTCTTGATTCGCTTGACGCTGCTG
Strand	fitted relative affinity
TCAGCTACCTCTCTTAGACTGTGCTAG	0.587 z-score
GGCCATTTCCCTTGCCGCGCGTGCTAG	0.322 z-score
TCATTTTTTTTTTTTTAACTGTGCTAG	1.76 z-score
TCAGTCCTCCTGACTGGGACTGTGCTA	0.283 z-score
TTAGGTCTCAGACTGGGTTAGTGCTAG	-0.312 z-score
CTGTGTTTCCTTGTACGTCGGTGCTAG	2.36 z-score
GACGGTTCCGGTTTCAGGACGTGCTAG	3.63 z-score
TCATTAATGAAAATTCTAACTGTGCTA	-0.551 z-score
GACGATATCGGGTATCAAGACGTGCTA	-0.0557 z-score
CTAGGTATCGGTATCGGTTAGTGCTAG	1.02 z-score
TTGTATTTGTCCCTATTTAAGTGCTAG	1.93 z-score
TTAGGTATCGTCACTGGGTTAGTGCTA	0.216 z-score
TTTGGACTGCTTCTCCTTTAGTGCTAG	1.13 z-score
TTACGACTGGGGACTGGGTTAGTGCTA	0.0176 z-score
TTAGGACGGGACACTGGGTTAGTGCTA	-0.87 z-score
TTTGCTCTGTGCATAGGCCTGTGCTAG	0.691 z-score
AGTAGCTGGGATTACAGGCAGTGCTAG	-0.747 z-score
TGAGGTTTCGGTTCCGGTTAGTGCTAG	10.5 z-score
TTAGGACCGGACACTGGGTTAGTGCTA	-1.04 z-score
AATGCCCTCGGTTTACAGGGGTGCTAG	2.58 z-score
GACGGTCTGGGGTTTCGGGACGTGCTA	0.464 z-score
GACGGACTGCTTTTCCTTACGTGCTAG	1.06 z-score
TTAGATTTCAGTCTCGATTTGTGCTAG	1.99 z-score
TTCGGTATCGGGTTTCGGTTAGTGCTA	4.51 z-score
GACGGACTGGACTATCGGGGCGTGCTA	-0.85 z-score
